Assay results from different studies.
Compare with care: the assays were run in different laboratories. In brackets after ≈: the same amount, converted by molar mass.
Organism: Mycobacterium tuberculosis

With `O=[N+]([O-])c1cc2c(ccc3cc(Br)ccc32)o1` the MIC90 was 0.031 to 0.5 µg/mL (H37Rv).
For `CC1(c2ccc(S(=O)(=O)c3ccccc3)cc2)OC(=O)C=CC1=O` (stereo not drawn), the MIC90 was 100 µg/mL (H37Rv, Sauton's medium; added: biotin 1 µM).
With `COc1cc(OC)cc(-c2ccc(C(=O)NCc3c4c(c(C)[nH]c3=O)CCCC4)cc2)c1` the inhibition was 99.8% (microbial growth, resazurin; H37RV; 25 µg/mL).
`COc1ccc2ccc3oc([N+](=O)[O-])cc3c2c1Br` gave an MIC90 of 0.031 to 0.5 µg/mL (H37Rv).
With `O=[N+]([O-])c1cc(C(F)(F)F)ccc1NCCc1c[nH]c2ccc(O)cc12` the MIC90 was 13 µM (growth in liquid medium; H37Rv; 5 days).
For `COc1cc(-c2ccc(C(=O)NCc3c4c(c(C)[nH]c3=O)CCCC4)cc2)cc(C(F)(F)F)c1`, the inhibition was 36.9% (microbial growth, resazurin; H37RV; 25 µg/mL).
`O=[N+]([O-])c1cc2c(ccc3c2ccc2cc([N+](=O)[O-])oc23)o1` has an MIC90 of 0.031 to 0.5 µg/mL (H37Rv).
`NNC(=O)c1ccncc1` gave an IC50 of 440 nM (intracellular bacterial growth; J774.1 mouse macrophages, mc^26206).
The inhibition of `COc1ccc(-c2ccc(C(=O)NCc3c4c(c(C)[nH]c3=O)CCCC4)cc2)cc1` is reported as 98.3% (microbial growth, resazurin; H37RV; 25 µg/mL).
`CCN(CC)C(=O)C[C@H](NC(=O)CCc1ccccc1)C(=O)N[C@@H](Cc1ccc(F)cc1)C(=O)NCc1cccc2ccccc12` has a CFU reduction of no more than 1 log10 CFU (non-replicating bacteria; H37Rv; above twice Ki, 5 days, pH 5.5, added: 0.5 mM NaNO2).
With `Cc1cc(C(F)(F)F)ccc1C(=O)NCc1c2c(c(C)[nH]c1=O)CCCC2` the inhibition was 34.5% (microbial growth, resazurin; H37RV; 25 µg/mL).
With `CCOC(=O)COc1ccc2ccc3oc([N+](=O)[O-])cc3c2c1` the MIC90 was 0.031 to 0.5 µg/mL (H37Rv).
`CO[C@@H](C(=O)NC1Cc2ccccc2C1)[C@H](O)[C@@H](O)[C@H](O)/C=C/C(C)(C)C` has an inhibition of 29% (microbial growth, resazurin; ATCC27294 H37RV; 128 µM, 7 days).
With `O=[N+]([O-])c1ccc(/C=N/Nc2nc(Nc3ccccc3)nc(Nc3ccccc3)n2)o1` the IC50 was 270 nM (intracellular bacterial growth; J774.1 mouse macrophages, mc^26206).
`Cc1c(Cc2ccc(F)c(F)c2F)c(=O)n2c([nH]c3ccccc32)c1C#N` has an MIC of 0.5 µg/mL (≈ 1.36 µM) (microbial growth, resazurin; H37RV).

Excerpt of the above:
`NNC(=O)c1ccncc1` gave an IC50 of 440 nM (intracellular bacterial growth; J774.1 mouse macrophages, mc^26206).
